Measured values of several laboratories.
A part holds a random share of what one study measured.

Block 1
SMILES: CO/N=C(\C(=O)N[C@@H]1C(=O)N2C(C(=O)O)=C(COC(C)=O)CS[C@H]12)c1csc(N)n1
Organism: Pseudomonas aeruginosa
technique	strain	MIC
–	clinical isolate RKI-No_496/15	> 16 µg/mL
–	clinical isolate RKI-No_598/16	> 16 µg/mL
–	clinical isolate RKI-No_502/15	> 16 µg/mL
broth microdilution	clinical isolate RKI-No 485/15-1	> 16 µg/mL

Block 2
Target: Replicase polyprotein 1ab, nsp14 (rep, Severe acute respiratory syndrome coronavirus 2, UniProt P0DTD1)
Action: inhibitor
Compound	IC50 [nM]
Cc1c(S(=O)(=O)N2CCc3n[nH]cc3C2)cc(C(=O)NCc2c(F)ccc3cnn(C)c23)n1C	0.2
Cc1c(S(=O)(=O)N2CCC(C)CC2)cc(C(=O)NC2Cc3ccccc3C2)n1C	40
COc1ccccc1CN(C)C(=O)c1cc(S(=O)(=O)N2CCC(C)CC2)c(C)n1C	> 6250
Cc1c(S(=O)(=O)N2CCC(C)CC2)cc(C(=O)NCc2cccnc2N2CCCC2=O)n1C	750
COc1ccccc1CNC(=O)c1cc(S(=O)(=O)N2CCCCC2)c(C)n1C	1500
COc1ccccc1CNCc1cc(S(=O)(=O)N2CCc3ccccc3C2)c(C)n1C	> 6250

Mixed results
SMILES	tested on	test system	conditions	endpoint	value
COC(=O)Nc1c(N)nc(-c2nn(Cc3ccccc3F)c3ncc(F)cc23)nc1N	–	healthy male humans, plasma	2.5 mg, phase I DDI study, alone	Cmax	82.8 ng/mL
Fc1ccccc1Cc1nc(-c2nc(C(F)(F)F)n[nH]2)cn2ccnc12	–	healthy human subjects, both sexes	oral, 10 mg, fed	subjects with irregular menstruation	7.7%
CC1COc2ccccc2N1C(=O)C(Cl)Cl (stereo not shown)	glutathione S-transferase	male rhesus monkey liver cytosol	5 µM, 30 min, pH 7.4, together with: GSH	enantiomeric fraction	0

Excerpt of the above (mixed results):
SMILES	tested on	test system	conditions	endpoint	value
CC1COc2ccccc2N1C(=O)C(Cl)Cl (stereo not shown)	glutathione S-transferase	male rhesus monkey liver cytosol	5 µM, 30 min, pH 7.4, together with: GSH	enantiomeric fraction	0
